Published values gathered from unrelated publications.
Numbered parts are unrelated; each lists some results of a single study.

Series 1
Target: RING finger protein unkempt homolog, zinc fingers 1-6, SBP tag (UNK, Homo sapiens, UniProt Q9C0B0, residues 30-357)
UniProt Q9C0B0, sequence (30-357, looked up): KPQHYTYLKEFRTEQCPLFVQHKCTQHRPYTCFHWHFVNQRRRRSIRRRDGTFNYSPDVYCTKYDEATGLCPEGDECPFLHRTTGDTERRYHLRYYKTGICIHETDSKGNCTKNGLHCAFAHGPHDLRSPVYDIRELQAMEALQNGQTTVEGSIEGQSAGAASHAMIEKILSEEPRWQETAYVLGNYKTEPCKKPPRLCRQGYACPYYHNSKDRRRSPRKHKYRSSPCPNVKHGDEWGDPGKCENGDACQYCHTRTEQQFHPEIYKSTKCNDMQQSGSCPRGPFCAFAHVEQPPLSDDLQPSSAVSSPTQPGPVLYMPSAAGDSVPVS
Technique: RNA Bind-n-Seq
Form: RNA
Sample: in vitro
Tested at: 100 nM
Notes: RNA with constant flanks, vertebrate orthologous sites, ends assumed
Baseline: input RNA pool
Direction: higher = stronger binding
`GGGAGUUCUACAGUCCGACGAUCCUGUAGUGCUUCAGCCAGCAAUUGUAGAGUGCUAUUUAUUUGUGUCUGUGAGUUUGUACAUAACCCUAACCUCAUAUUGUUGCUGAGUUUCAUUUUGAGGAAGGCAAGUUUGAGUUUUCUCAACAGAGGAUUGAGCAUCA` has a bound/input enrichment of 0.509 ratio.
`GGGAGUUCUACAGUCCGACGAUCCAUUGUACCCUGCUGUAUAAUAAACAAUCUUAGACAUUUAUCAACUGUUGAUACAAAUGUUAGUCCCUAACCACUUUUUAUAUGUUUUAAAUUUUUGAAAUUCAAGUGUGCCUGCCGUAACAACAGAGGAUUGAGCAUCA` gave a bound/input enrichment of 1.57 ratio.
The bound/input enrichment of `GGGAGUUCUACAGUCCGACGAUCCCCCGAUUUUAGAUGUGAUAUCUAGGCUUUCAUUCCAGUUUGUUUUUGUCUUUUCUUGUUUAGAUAACCAAUCUUUUAAAUUCUUGCAUUUUAGUAAGAAAGCAACCUUUUUAUGGAUGUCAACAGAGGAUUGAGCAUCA` is reported as 1.11 ratio.
For `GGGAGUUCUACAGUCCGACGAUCAGUUGAUGUUUUAAAGAAUCAUUUGGUAAAAGAAGGUCGAGUUGAUGAAGAAAUUGCACUUAGAAUUAUUAAUGAGGGUGCUGCCAUCCUUCGGAGAGAGAAAACCAUGAUAGAAGUAGACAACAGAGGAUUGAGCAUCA`, the bound/input enrichment was 0.741 ratio.
For `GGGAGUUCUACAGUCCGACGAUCCUCCCUGUUAUCUCUAAAAUACAACUUUUUAAAAUCGUGUUGCUACCACUUCUAAAAAUGCAGCAAUAUUCAAAUAAAACACUAAUGAUAUGAGAAAUGUUGCAUAUUGUUUCGCAAGCCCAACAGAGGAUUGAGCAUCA`, the bound/input enrichment was 0.348 ratio.
`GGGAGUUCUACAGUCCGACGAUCUGGAAGAAAUGGACAUUGGCAUGAAAUCAGGCUCUAGCACAAGCAGAUCUAGUAAAAAGACUGCCAUCUGCGCCAGCUGCUGUGCACUUUAAUAGAGGCAGCUGUGUUUGAGGAACAGAACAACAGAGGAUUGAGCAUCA` gave a bound/input enrichment of 0.355 ratio.
`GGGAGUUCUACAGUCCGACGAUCUUACAGUCAUUGAUGGACUCUAUUUUUUUAUUAUUACUUGGACCUUGGUCGUUUUUAUACUAGCAAAAUGUCUUGUUUUAAUUUGGGGGCUUUUUUUGGGGGGGAGGAGGGAGGGCGUGACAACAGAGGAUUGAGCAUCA` has a bound/input enrichment of 3.26 ratio.
The bound/input enrichment of `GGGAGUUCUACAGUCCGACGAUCAAAGAAAAAAUCAGUCCUAUAUAAUGAUUGAUCCCAUAAUCAAAAUCCCUAGCAAUCUAUUCGAAAUCUUACUUUUCUUACUCAAGUUCAAUGUUUUGGUCAUAAUUAGUUCACAAUUAACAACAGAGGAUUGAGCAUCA` is reported as 2.18 ratio.

Series 2
Target: Histone acetyltransferase KAT6A, winged helix 1, GST fusion (KAT6A, Homo sapiens, UniProt Q92794, residues 1-85)
Technique: protein binding microarray
Form: double-stranded DNA, one strand shown
Sample: in vitro
Tested at: not given
Notes: 8-mer, flanks averaged, mean of 2 arrays, mostly near background
Baseline: not given
Direction: higher = stronger binding
Construct (chain): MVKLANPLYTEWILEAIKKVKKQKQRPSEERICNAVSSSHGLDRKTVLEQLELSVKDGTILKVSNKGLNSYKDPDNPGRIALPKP
With `CTCATAAG` the E-score was -0.164.
`ATTCCTCG` gave an E-score of -0.11.
For `ACTACAAG`, the E-score was -0.0959.
The E-score of `ATACGGGA` is reported as 0.306.
For `ACCACCAT`, the E-score was -0.0841.
The E-score of `GCAAAACA` is reported as -0.0916.
The E-score of `ACCTGTTA` is reported as -0.255.
The E-score of `CAGCGTAC` is reported as 0.272.
For `CTCATGAC`, the E-score was -0.0317.
`AGTTCGGC` has an E-score of 0.0843.
For `AAAGCGCT`, the E-score was 0.338.
The E-score of `AGTAAAGA` is reported as -0.0287.
`ATGACTAG` gave an E-score of 0.00217.
`CATGGGAC` has an E-score of -0.135.
The E-score of `ACACTAGA` is reported as -0.0748.
With `GCTGGTCA` the E-score was -0.0102.
For `CACTCAAA`, the E-score was -0.192.
The E-score of `AGTGCGGC` is reported as 0.36.
The E-score of `GCAACGCA` is reported as 0.0914.
`CACATTGA` gave an E-score of 0.107.
The E-score of `CTTCCCTC` is reported as -0.12.
The E-score of `AGAAAAGG` is reported as -0.239.
`CCCTCCTC` has an E-score of -0.32.
`GCTCCAAC` gave an E-score of 0.0446.
`AAAGGAAT` has an E-score of -0.26.

Series 3
Target: Ras GTPase-activating protein-binding protein 1, RRM domain (G3BP1, Homo sapiens, UniProt Q13283)
UniProt Q13283, sequence (whole entry, looked up): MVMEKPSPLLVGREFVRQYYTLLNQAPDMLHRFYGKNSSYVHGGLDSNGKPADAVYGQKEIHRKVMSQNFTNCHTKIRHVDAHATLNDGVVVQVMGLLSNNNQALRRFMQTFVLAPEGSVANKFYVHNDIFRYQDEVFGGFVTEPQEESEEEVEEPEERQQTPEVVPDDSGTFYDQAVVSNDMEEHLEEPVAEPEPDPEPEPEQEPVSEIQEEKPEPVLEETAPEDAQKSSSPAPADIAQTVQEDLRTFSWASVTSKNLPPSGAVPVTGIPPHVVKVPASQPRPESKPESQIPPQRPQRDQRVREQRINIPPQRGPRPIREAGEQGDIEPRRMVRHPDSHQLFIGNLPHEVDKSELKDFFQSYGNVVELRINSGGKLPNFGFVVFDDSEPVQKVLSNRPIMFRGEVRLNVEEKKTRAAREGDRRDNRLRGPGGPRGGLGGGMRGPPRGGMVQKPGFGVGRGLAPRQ
Technique: RNA Bind-n-Seq
Form: RNA
Sample: in vitro
Tested at: 1 µM
Notes: whole 134-nt RNA, ends assumed
With: 150 mM KCl
Baseline: input library
Direction: higher = stronger binding
The log2 enrichment of `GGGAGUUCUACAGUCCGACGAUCCAAGUCCUGUGCUACACAUCGUAUGUACCGAAUCGGAAAAAGGAAAAAAAGGAGGAAAGUAUUAUGUUACGCCGUUCGGAUCUGCACUUCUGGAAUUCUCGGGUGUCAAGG` is reported as -0.0457.
With `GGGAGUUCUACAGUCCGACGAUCCACAGACAACACGCACCCACACAGACACAGAGGGAAGGGGUUGGGAUGGGGACAGGGUGCACAGCAGGGCGGGGUAGGACCCCAUCCCCUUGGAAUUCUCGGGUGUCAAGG` the log2 enrichment was -0.484.
For `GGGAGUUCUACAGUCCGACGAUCAGUCCUGUGCUACACAUCGUAUGUACCGAAUCGGGUUUUUGGGAAAGGGUUUUUGGGAAAGUAUUAUGUUACGCCGUUCGGAUCUGCACUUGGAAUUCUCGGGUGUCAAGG`, the log2 enrichment was 0.396.
With `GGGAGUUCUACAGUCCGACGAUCCUGUGCUACACAUCGUAUGUACCGAAUCGGGGCCCCCCCGGGGCCCCCCCGGGCCCCCCCGGAAAGUAUUAUGUUACGCCGUUCGGAUCUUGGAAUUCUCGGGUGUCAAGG` the log2 enrichment was -0.565.
The log2 enrichment of `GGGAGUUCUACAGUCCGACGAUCAAGUCCUGUGCUACACAUCGUAUGUACCGAAUCGGCCCCGGCCCCGGGGCCCCGGGAAAGUAUUAUGUUACGCCGUUCGGAUCUGCACUUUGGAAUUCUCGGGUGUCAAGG` is reported as -0.518.
For `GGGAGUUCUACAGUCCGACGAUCUCAAGUCCUGUGCUACACAUCGUAUGUACCGAAUCGGUUUGGUUUUUGGAAAGGAAAGUAUUAUGUUACGCCGUUCGGAUCUGCACUUCCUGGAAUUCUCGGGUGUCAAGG`, the log2 enrichment was -0.146.
`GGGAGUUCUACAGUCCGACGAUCUUCUUGCCAGAGACGAAGAAGCGCAAGAAACGCAAGUCAGAGGAUGGCACGCCAGCGGAGGAUGGCACACCUGCAGCCACCGGCGGGAGCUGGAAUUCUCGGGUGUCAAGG` has a log2 enrichment of -0.403.
With `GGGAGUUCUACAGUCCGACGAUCUGGCCCUGGUGCCAUGCGGGGAGGAAGAGGUGGCCUCAUGGAUCGUGGUGGUCCCGGUGGAAUGUUCAGAGGUGGCCGUGGUGGAGACAGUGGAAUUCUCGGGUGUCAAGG` the log2 enrichment was 0.752.
For `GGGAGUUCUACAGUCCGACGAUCUUAUCACCAGGACUGCCAUGUUCCCAGGGCUCCAGCCCCUGGAGAGGGAGAGGGCACAUCCUGGGUAUGCCGCCAGUGUGUCUUUGCGAUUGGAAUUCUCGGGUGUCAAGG`, the log2 enrichment was -0.348.

Series 4
Target: Sal-like protein 4, full length isoform A (SALL4, Homo sapiens, UniProt Q9UJQ4, residues 1-1053)
UniProt Q9UJQ4, sequence (whole entry, looked up): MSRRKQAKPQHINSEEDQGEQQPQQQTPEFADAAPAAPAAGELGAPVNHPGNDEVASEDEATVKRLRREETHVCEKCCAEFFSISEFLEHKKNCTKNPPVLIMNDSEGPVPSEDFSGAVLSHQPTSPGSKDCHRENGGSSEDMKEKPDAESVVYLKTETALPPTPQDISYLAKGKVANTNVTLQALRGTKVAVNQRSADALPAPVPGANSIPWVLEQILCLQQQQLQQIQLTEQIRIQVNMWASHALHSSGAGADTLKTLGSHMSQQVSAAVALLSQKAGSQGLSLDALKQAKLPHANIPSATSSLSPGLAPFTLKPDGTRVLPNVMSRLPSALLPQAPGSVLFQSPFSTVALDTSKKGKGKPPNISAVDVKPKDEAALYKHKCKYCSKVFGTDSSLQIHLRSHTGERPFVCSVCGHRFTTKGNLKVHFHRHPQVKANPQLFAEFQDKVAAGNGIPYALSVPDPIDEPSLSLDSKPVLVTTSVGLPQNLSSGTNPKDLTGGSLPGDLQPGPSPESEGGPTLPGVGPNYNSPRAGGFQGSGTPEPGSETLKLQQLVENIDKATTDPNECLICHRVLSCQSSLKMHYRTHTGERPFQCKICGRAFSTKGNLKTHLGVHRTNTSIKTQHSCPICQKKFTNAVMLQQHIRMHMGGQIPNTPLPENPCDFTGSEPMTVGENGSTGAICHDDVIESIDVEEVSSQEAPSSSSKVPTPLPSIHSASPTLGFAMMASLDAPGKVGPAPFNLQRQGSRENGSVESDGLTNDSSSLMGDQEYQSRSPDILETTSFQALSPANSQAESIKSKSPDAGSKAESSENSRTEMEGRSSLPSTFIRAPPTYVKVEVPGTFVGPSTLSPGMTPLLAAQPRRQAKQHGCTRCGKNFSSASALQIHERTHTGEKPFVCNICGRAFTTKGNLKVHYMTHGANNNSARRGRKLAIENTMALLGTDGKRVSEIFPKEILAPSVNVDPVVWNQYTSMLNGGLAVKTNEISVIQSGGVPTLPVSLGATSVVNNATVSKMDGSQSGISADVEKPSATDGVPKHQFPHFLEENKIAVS
Technique: universal PBM
Form: double-stranded DNA, one strand shown
Sample: in vitro
Tested at: 600 nM
Notes: 8-mer, flanks averaged, mean of replicates
Direction: higher = stronger binding
With `ATGGGGTG` the E-score was -0.186.
`ACCCGGAA` has an E-score of -0.15.
With `GCATCAGA` the E-score was 0.125.
For `ACCTCCGA`, the E-score was -0.0589.
`TACCTTAA` gave an E-score of 0.0815.
With `CGTGGAGC` the E-score was -0.125.
`AGGAGTAG` gave an E-score of -0.0753.
For `ATGGAAAA`, the E-score was 0.266.
With `CGTCGCAA` the E-score was -0.134.
`GATATACC` gave an E-score of 0.219.
`AATTTGTC` gave an E-score of 0.124.
For `GATTGGGC`, the E-score was -0.0662.
With `AGACAATG` the E-score was 0.125.
With `CAAACAGG` the E-score was -0.0695.
`AGCCGACT` gave an E-score of -0.296.
The E-score of `TACTGAAA` is reported as 0.306.
The E-score of `CTTGTTTC` is reported as 0.0893.
`AACATTCA` has an E-score of 0.0966.
`CAGAGAGC` gave an E-score of -0.164.
With `ACGGCCAG` the E-score was -0.289.
For `CCTTTCAA`, the E-score was 0.105.

Repeated from above (series 2):
`AGTTCGGC` has an E-score of 0.0843.
For `AAAGCGCT`, the E-score was 0.338.
The E-score of `AGTAAAGA` is reported as -0.0287.
`ATGACTAG` gave an E-score of 0.00217.
`CATGGGAC` has an E-score of -0.135.
The E-score of `ACACTAGA` is reported as -0.0748.
With `GCTGGTCA` the E-score was -0.0102.
For `CACTCAAA`, the E-score was -0.192.
The E-score of `AGTGCGGC` is reported as 0.36.
The E-score of `GCAACGCA` is reported as 0.0914.
